Results from different studies.
Numbered parts are unrelated; each lists some results of a single study. Substitutions count along the parent as printed.

Set 1
Target: Histone acetyltransferase KAT6A, winged helix 2, GST fusion (KAT6A, Homo sapiens, UniProt Q92794, residues 85-181)
Technique: protein binding microarray
Form: double-stranded DNA, one strand shown
Sample: in vitro
Tested at: not given
Setting: 8-mer, flanks averaged, mean of 2 arrays, mostly near background
Relative to: not given
Direction: higher = stronger binding
Residues (chain): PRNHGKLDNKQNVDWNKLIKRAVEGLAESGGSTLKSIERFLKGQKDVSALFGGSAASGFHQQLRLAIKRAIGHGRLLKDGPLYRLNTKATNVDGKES
The E-score of `ACAGTAAA` is reported as -0.0247.
With `GGGTATTA` the E-score was -0.0383.
The E-score of `CCTAGCAA` is reported as -0.0154.
`ACTAATCC` gave an E-score of 0.0444.
`ACGCTCCT` gave an E-score of 0.0113.
For `CAGTTTCG`, the E-score was 0.0291.
`CTCTCAAG` has an E-score of 0.121.
The E-score of `CTGGACCC` is reported as -0.0519.
For `ACCTCGGG`, the E-score was 0.0385.
`AATCCGCG` gave an E-score of 0.191.
`GAGCCGGC` gave an E-score of 0.203.
`ATTCGTGA` has an E-score of -0.0916.

Set 2
Target: CCNB2, cyclin fold, Cln2 fusion (human)
Technique: yeast growth competition, sequencing
Sample: yeast
Setting: weak parent motif
Relative to: not given
Direction: higher = stronger binding
Parent: CDKN1B docking peptide (human); PSACRNLFGPVDH; partner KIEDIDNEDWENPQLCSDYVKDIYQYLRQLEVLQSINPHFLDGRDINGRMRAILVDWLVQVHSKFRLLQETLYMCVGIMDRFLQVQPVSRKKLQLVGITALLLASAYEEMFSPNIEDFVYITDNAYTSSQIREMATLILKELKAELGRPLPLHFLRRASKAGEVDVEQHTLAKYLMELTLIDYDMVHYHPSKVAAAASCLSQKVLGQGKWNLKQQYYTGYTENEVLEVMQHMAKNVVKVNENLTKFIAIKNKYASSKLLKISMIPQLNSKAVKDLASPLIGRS
`R5E`: “normalised enrichment score” -0.17.
Under “normalised enrichment score”, `F8L` is recorded as 0.0163.
For `G9T`, “normalised enrichment score” read 0.321.
Under “normalised enrichment score”, `V11D` is recorded as -0.175.
Under “normalised enrichment score”, `S2E` is recorded as -0.43.
For `F8K`, “normalised enrichment score” read 0.134.
Under “normalised enrichment score”, `S2M` is recorded as 0.0631.
Under “normalised enrichment score”, `H13A` is recorded as -0.101.

Set 3
Target: Sal-like protein 4, full length isoform A (SALL4, Homo sapiens, UniProt Q9UJQ4, residues 1-1053)
Sequence of UniProt Q9UJQ4 (whole entry, looked up): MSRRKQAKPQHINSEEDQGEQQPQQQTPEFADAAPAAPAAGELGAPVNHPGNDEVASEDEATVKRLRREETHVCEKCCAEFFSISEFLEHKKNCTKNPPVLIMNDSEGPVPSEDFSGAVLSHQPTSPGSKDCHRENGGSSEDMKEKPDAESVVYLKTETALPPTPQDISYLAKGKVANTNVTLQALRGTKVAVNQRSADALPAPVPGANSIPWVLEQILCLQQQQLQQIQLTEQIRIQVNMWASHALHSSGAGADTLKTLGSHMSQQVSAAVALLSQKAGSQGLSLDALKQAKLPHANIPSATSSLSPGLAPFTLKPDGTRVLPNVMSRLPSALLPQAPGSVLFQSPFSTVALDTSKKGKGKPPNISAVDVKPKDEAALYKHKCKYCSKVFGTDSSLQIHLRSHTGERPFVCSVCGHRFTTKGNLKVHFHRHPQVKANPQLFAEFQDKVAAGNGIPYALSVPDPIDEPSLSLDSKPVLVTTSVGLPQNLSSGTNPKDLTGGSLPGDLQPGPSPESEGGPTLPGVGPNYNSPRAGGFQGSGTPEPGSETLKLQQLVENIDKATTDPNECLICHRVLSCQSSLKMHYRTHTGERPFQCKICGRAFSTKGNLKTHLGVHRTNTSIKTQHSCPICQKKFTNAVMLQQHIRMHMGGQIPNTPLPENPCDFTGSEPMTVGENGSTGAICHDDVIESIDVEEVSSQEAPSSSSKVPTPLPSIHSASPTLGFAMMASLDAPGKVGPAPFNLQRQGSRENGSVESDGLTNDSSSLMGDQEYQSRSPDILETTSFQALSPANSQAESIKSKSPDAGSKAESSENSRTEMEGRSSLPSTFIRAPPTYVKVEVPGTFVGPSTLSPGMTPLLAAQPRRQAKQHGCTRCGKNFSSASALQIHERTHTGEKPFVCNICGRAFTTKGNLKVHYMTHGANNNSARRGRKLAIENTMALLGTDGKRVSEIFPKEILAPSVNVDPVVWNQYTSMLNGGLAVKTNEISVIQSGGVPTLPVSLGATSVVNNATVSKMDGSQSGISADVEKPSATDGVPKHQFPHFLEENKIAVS
Technique: universal PBM
Form: double-stranded DNA, one strand shown
Sample: in vitro
Tested at: 600 nM
Setting: 8-mer, flanks averaged, mean of replicates
Direction: higher = stronger binding
With `ACTTCAGA` the E-score was 0.0754.
For `AGGCTGAC`, the E-score was -0.171.
`GCTCTATA` gave an E-score of 0.121.
With `CTGTATAC` the E-score was 0.223.
For `GATACTGC`, the E-score was -0.0177.
`CAGCGTCC` has an E-score of -0.178.
`CCTCCAAG` gave an E-score of -0.0787.
The E-score of `CTTTTGTA` is reported as 0.221.
For `TGTAACAA`, the E-score was 0.192.
For `ATCTTCAC`, the E-score was 0.145.
`GGATATCC` has an E-score of 0.017.
The E-score of `AAGCGATA` is reported as 0.0731.

Further values, each from its own experiment
`PhoQ, residues 284 288 289 292 302 303 NLALSC` has a fold induction of 0.562 (PhoP, residues 12 14 15 18 19 TPLRH (Escherichia coli, UniProt P23836); Sort-seq, measured: YFP reporter; E. coli; PhoQ-PhoP variant library, with: 10 µM Mg2+; relative to: high Mg2+ state, higher = stronger signaling).

Excerpt of the above (set 1):
For `CAGTTTCG`, the E-score was 0.0291.
`CTCTCAAG` has an E-score of 0.121.
The E-score of `CTGGACCC` is reported as -0.0519.
For `ACCTCGGG`, the E-score was 0.0385.
